Measurements pooled from the literature.
Lines come from different studies, so protocols differ. ± gives the spread as reported.

SMILES	test	test system	setting	quantity	value
CN[C@H](CC(C)C)C(=O)N[C@H]1C(=O)N[C@@H](CC(N)=O)C(=O)N[C@H]2C(=O)N[C@H]3C(=O)N[C@H](C(=O)N[C@H](C(=O)O)c4cc(O)cc(O)c4-c4cc3ccc4O)[C@H](O)c3ccc(c(Cl)c3)Oc3cc2cc(c3O[C@@H]2O[C@H](CO)[C@@H](O)[C@H](O)[C@H]2O[C@H]2C[C@](C)(N)[C@H](O)[C@H](C)O2)Oc2ccc(cc2Cl)[C@H]1O		guinea pig, tissue cage fluid	local, 10 mg/mL, poloxamer 407 hydrogel	elimination rate constant	3.33e-05 s⁻¹
CC(C)(C)c1cc(C(C)(C)C)c(NC(=O)c2c[nH]c3ccccc3c2=O)cc1O		human, plasma	standard ETI dose	elimination half-life	300 min
C[C@@H](NC(=O)N1C(=O)[C@H](Cc2ccnc(N)c2)[C@H]1C(=O)O)C1CCCCC1	UPLC-MS/MS	healthy adult Chinese volunteers, plasma	continuous intravenous infusion, 0.3 mg/kg/h, day 6 of 5-day infusion, mean	elimination rate constant	0.000151 s⁻¹
O=C(N1CCCCC1)C12CC(c3ccccc3)(C1)C2		pooled human liver microsomes	2 µM, pH 7.4	elimination rate constant	0.000167 s⁻¹
O=C(c1cccnc1-c1ccncc1)N1CCC(O)(Cc2ccccc2)CC1		healthy Japanese adults, plasma	oral, 200 mg single dose	elimination rate constant	4.44e-05 s⁻¹
CC(C)(CO)c1cc2cc(NC(=O)C3(c4ccc5c(c4)OC(F)(F)O5)CC3)c(F)cc2n1C[C@@H](O)CO		human, plasma	standard ETI dose	elimination half-life	786 min
Cc1nc2ccc(OCc3ccc(C(F)(F)F)cc3)cc2[nH]1		human liver S9	1 µM, pH 7.4	elimination rate constant	5.17e-05 s⁻¹
CCOc1c([C@H](C)n2nc(C)c3c(N)ncnc32)cc(Cl)c(F)c1[C@@H]1CNC(=O)C1		rat liver microsomes	0.5 µM, pH 7.4	elimination rate constant	2.02e-05 s⁻¹
O=C(O)Cc1ccccc1Nc1c(Cl)cccc1Cl		pooled human liver microsomes	2 µM, pH 7.4	elimination rate constant	0.00138 s⁻¹
O=C(O)c1cc(O)c(O)c(O)c1		chicken Ross broiler, male, serum	intravenous, 0.49 mg/kg	elimination rate constant	0.000317 ± 0.000256 s⁻¹
